Experimental data from different studies.
Numbered parts are unrelated; each lists some results of a single study. Positions count from the first letter of the parent shown.

Sample 1 — method: RNA Bind-n-Seq; form: RNA; sample: in vitro; tested at: 365 nM; baseline: no-protein control; reading: higher = stronger binding
Target: RNA binding protein fox-1 homolog 2, RRM domain, GST-SBP tag (RBFOX2, Homo sapiens, UniProt O43251-10, residues 100-194)
Setting: natural RNA segment, single round, ends assumed
Shared flanks, not repeated: GGGAGUUCUACAGUCCGACGAUC … UGGAAUUCUCGGGUGCCAA
Construct (chain): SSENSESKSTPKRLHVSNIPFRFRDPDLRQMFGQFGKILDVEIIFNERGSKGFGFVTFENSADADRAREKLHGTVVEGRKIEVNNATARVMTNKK
| Oligonucleotide | RBNS enrichment (R) |
| --- | --- |
| UCUCCUUUUCCAGCAUCCCUAUCCUAUGGUGCUUUGGUGGUGAACUAUGGCAGUCCUGACUUGCUGAUGACCAUAUGCUGGUGACCUACAAAUCGGGAUCCUGCCAUAUG | 1.01 |
| ACUGGGGGUUAUGCAGCGUGGUCCAGCCGGAGCGGCCAGCAUGACCAGCUGUCCAGGGGCUGCCUCCUGCCUUUUUUUUUGUAAAGACAAGACCCUUGGGAGUUUUCAUU | 0.556 |
| GAGGAUAGCAGGCUGGACUAUUGGUGGGCACCUUUCAAGCCCAGGGCUACUGUUUGUCCUGUGGCAGCCGGCUACAGUCUCGUCUGAGUGGCCUCAUCUGGACCCUUCCU | 0.268 |
| UCUCCCCGCGAGUGCAGUCGGAUGCCGUUGUCCCCAAGGGCCAGGCCGAACUCGCCCCACACCUGCGGGCGCCUGGCUGCCGACGCCGGUGGAGGCCACGCCGUCGGUCG | 0.233 |
| GAAGGUAUGGAGGCAUGGUUUGUUUCGGUUCAUCUCCAGGAUGUAUACAGUGAAGACAAACCAAAUACUUUUCACCAUUGAACUAUCUGUACAUUAUCUUUGGUAACACU | 0.312 |
| CUCCACUAACCUUUUCUCUCCAACUGUAAACACAGAGACAGCUUUGGGAAUAAGCCAAAAACAGGGUGAUCUCAUUAGAUUUUGAAGAUAUAUGACUCCUUUGGGCUACA | 0.462 |

Sample 2 — target: CCND3, cyclin fold, Cln2 fusion (human); method: yeast growth competition, sequencing; sample: yeast; setting: weak parent motif; baseline: not given; reading: higher = stronger binding
Starting sequence: MASTL docking peptide (human); PMIAKNLMCELDE
| Variant | normalised enrichment score |
| --- | --- |
| PMGAKNLMCELDE [I3G] | 0.185 |
| PMIAKNLQCELDE [M8Q] | -0.31 |
| PMIAKNLMCELVE [D12V] | 0.0167 |
| PMIAKNLMCELIE [D12I] | -0.111 |
| PMIAKNAMCELDE [L7A] | -0.252 |
| PMINKNLMCELDE [A4N] | 0.59 |

Sample 3 — method: DHFR PCA, deep sequencing; sample: yeast; added: (+)-ABA 200 µM; baseline: wild-type fitted maximum; reading: higher = stronger binding
Target: ABI1, truncated, D143A, DHFR fusion (Arabidopsis thaliana)
Setting: methotrexate growth selection, single substitutions
Starting sequence: PYL1, truncated, DHFR fusion (Arabidopsis thaliana); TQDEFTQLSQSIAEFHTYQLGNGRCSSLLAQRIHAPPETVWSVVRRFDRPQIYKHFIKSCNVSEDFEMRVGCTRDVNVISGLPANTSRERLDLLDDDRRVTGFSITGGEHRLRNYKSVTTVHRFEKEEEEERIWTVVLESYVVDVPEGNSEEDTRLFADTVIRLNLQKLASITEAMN
| Variant | relative binding score [%] |
| --- | --- |
| K126Q | 104 |
| R45N | 50.8 |
| P83Y | 14.8 |
| V137I | 89.6 |
| S9Q | 97.7 |
| V70D | 71.2 |

Single results of other studies
| Molecule | target | test | system | setting | how to read | measurement | value |
| --- | --- | --- | --- | --- | --- | --- | --- |
| PhoQ, residues 284 288 289 292 302 303 SCEHLI | PhoP, residues 12 14 15 18 19 LHTVM (Escherichia coli, UniProt P23836) | Sort-seq, item: YFP reporter | E. coli | PhoQ-PhoP variant library, added: 10 µM Mg2+ | baseline: high Mg2+ state, higher = stronger signaling | fold induction | 32.5 |

Some of these lines once more (sample 3):
| Variant | relative binding score [%] |
| --- | --- |
| K126Q | 104 |
| V70D | 71.2 |
